Measurements pooled from the literature.
Values joined by “and” are separate records of one study, mostly repeats; a detail may differ. ± gives the spread as reported.
Pnpla8: Pnpla8 (Mus musculus, UniProt Q8K1N1)
UniProt Q8K1N1, sequence (whole entry, looked up): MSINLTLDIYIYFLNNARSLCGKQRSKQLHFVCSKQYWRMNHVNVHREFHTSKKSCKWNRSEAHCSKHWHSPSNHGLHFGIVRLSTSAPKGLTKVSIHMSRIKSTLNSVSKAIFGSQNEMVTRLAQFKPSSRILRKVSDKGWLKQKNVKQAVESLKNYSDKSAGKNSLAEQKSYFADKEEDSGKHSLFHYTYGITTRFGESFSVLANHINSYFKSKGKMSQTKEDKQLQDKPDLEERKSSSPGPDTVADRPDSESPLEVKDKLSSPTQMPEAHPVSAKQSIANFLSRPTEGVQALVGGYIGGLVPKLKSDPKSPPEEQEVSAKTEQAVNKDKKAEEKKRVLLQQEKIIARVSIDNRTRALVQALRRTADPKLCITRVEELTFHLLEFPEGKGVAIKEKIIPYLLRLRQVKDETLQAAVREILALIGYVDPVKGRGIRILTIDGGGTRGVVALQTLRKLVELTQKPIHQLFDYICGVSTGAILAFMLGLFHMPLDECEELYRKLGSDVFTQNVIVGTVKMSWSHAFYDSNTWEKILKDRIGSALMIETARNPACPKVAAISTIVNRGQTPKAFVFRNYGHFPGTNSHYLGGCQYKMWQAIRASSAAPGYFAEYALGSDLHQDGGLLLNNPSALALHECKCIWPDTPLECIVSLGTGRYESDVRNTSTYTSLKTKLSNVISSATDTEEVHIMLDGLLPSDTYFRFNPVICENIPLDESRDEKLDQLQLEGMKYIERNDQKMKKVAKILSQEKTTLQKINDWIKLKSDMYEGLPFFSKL
Uncharacterized hydrolase SAUSA300_2518: Uncharacterized hydrolase SAUSA300_2518 (Staphylococcus aureus, UniProt Q2FDS6)
UniProt Q2FDS6, sequence (whole entry, looked up): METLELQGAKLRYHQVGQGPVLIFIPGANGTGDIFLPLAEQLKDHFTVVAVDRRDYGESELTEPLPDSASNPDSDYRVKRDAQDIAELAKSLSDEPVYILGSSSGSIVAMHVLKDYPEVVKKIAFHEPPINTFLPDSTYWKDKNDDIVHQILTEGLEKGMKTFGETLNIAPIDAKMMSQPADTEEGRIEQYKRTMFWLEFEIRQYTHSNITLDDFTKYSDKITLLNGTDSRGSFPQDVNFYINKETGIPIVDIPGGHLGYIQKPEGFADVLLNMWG
Oprm1: Mu-type opioid receptor (Oprm1, Rattus norvegicus, UniProt P33535)
UniProt P33535, sequence (whole entry, looked up): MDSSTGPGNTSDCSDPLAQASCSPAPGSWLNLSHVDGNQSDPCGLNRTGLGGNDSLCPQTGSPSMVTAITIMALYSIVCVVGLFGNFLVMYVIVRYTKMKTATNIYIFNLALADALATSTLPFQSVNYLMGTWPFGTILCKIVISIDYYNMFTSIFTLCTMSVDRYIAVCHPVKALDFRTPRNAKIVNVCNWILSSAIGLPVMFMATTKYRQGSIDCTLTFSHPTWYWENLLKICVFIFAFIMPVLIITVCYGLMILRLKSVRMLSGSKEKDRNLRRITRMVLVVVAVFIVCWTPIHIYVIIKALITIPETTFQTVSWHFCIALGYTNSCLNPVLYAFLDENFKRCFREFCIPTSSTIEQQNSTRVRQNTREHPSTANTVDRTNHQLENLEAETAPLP
lasR: Transcriptional activator protein LasR (lasR, Pseudomonas aeruginosa, UniProt P25084)
UniProt P25084, sequence (whole entry, looked up): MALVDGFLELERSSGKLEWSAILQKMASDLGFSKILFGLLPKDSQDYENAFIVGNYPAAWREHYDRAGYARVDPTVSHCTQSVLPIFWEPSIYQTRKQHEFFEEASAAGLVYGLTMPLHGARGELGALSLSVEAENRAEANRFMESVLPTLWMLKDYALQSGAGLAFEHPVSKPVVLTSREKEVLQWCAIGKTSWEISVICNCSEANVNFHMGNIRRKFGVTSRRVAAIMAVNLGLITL
sdiA: Regulatory protein SdiA (sdiA, Escherichia coli, UniProt P07026)
UniProt P07026, sequence (whole entry, looked up): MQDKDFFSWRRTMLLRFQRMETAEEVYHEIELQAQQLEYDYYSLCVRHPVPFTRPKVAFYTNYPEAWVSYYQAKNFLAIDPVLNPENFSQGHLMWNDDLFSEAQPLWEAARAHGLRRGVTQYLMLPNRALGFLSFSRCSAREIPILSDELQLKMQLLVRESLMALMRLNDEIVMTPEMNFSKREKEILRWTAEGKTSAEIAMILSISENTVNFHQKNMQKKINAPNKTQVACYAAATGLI
KEAP1: Kelch-like ECH-associated protein 1 (KEAP1, Homo sapiens, UniProt Q14145)
UniProt Q14145, sequence (whole entry, looked up): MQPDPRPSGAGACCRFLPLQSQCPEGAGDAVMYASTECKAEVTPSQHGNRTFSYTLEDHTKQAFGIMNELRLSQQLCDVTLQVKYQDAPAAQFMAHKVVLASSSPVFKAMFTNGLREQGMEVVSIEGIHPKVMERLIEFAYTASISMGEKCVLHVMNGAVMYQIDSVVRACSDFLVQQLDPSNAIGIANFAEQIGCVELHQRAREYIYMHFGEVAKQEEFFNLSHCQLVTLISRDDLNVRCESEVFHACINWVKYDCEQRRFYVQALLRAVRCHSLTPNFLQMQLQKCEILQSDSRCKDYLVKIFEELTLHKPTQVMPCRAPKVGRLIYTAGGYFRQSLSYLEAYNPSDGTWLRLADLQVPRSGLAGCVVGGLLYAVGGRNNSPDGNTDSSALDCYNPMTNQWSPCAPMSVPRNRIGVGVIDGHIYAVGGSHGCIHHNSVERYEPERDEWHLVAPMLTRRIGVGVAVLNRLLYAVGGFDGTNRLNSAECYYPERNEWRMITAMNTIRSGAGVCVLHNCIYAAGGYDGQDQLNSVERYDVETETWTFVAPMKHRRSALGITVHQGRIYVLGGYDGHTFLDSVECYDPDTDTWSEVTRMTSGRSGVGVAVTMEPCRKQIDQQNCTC
UniProt P41743, sequence (whole entry, looked up): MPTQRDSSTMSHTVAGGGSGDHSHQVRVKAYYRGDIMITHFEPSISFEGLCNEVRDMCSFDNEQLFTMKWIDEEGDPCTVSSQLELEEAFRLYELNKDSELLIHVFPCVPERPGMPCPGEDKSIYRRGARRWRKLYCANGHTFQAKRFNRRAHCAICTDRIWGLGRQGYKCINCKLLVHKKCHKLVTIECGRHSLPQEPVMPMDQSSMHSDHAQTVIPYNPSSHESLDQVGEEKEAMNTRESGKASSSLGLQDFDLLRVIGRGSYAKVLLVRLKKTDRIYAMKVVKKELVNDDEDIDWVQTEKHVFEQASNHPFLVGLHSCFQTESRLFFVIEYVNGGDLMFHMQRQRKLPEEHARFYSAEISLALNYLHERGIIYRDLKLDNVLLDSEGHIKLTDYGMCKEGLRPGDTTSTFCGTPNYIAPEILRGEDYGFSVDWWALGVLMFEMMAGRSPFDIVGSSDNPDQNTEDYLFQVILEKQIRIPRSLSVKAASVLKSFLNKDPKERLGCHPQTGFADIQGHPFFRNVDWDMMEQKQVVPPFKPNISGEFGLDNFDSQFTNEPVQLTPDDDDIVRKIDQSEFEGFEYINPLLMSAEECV
UniProt Q9Y2J8, sequence (whole entry, looked up): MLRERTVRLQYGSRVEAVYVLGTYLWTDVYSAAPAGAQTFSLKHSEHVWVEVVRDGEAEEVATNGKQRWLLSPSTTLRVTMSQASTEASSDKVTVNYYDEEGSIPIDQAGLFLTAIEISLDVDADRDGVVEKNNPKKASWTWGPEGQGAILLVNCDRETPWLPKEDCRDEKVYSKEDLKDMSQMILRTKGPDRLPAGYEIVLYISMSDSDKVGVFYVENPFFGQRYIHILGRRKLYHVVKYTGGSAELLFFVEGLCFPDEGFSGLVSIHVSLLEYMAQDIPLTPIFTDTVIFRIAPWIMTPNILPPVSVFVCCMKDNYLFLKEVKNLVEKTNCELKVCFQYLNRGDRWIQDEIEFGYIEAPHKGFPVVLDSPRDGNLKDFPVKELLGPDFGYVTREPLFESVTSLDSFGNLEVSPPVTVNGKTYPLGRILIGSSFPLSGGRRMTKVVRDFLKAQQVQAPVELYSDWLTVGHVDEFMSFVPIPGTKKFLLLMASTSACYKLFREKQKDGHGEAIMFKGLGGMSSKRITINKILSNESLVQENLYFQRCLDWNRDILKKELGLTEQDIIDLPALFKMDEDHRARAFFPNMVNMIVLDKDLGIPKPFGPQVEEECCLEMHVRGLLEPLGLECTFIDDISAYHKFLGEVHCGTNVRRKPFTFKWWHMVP
UniProt P0A988, sequence (whole entry, unmodified, looked up): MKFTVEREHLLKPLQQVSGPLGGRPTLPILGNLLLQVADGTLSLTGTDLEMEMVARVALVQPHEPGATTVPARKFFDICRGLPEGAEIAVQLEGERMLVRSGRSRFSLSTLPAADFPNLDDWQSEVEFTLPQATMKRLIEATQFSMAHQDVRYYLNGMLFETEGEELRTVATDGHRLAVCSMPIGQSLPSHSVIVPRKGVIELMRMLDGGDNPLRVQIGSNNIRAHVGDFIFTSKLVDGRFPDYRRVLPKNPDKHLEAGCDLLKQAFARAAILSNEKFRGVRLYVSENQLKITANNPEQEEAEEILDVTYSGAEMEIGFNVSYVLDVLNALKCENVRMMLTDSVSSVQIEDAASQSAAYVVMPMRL
UniProt Q13043, sequence (whole entry, looked up): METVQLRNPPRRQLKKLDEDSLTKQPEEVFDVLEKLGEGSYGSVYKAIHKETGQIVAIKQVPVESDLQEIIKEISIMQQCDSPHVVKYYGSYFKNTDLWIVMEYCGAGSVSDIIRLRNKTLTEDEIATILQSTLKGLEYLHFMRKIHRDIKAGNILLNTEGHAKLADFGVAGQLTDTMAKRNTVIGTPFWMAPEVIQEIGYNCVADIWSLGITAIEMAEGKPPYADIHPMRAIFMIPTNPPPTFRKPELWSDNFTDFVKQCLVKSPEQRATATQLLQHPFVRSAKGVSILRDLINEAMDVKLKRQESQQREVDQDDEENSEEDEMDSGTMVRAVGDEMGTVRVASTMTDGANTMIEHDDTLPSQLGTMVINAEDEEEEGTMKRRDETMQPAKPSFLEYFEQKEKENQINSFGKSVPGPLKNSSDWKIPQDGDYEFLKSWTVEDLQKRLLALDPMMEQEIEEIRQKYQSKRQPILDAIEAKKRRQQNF
UniProt Q00526, sequence (whole entry, looked up): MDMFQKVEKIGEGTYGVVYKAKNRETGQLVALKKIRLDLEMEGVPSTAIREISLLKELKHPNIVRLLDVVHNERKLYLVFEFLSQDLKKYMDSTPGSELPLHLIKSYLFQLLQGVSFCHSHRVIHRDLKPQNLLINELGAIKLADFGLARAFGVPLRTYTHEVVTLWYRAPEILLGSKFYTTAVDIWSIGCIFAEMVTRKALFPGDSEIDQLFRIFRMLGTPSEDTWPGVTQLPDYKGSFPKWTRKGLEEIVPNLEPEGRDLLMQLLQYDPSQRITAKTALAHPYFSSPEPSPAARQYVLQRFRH

`O=C(O)c1cccc(CP(=O)(O)O)n1` has a kon of 0.08 ± 0.02 µM⁻¹ min⁻¹ (Metallo-beta-lactamase type 2 (Serratia marcescens, UniProt P52699); enzyme activity, inhibitor; added: nitrocefin).
`CS(C)(=O)=Nc1ccc(-c2ccc(-c3nc4cc(O[C@@H]5CO[C@H]6[C@@H]5OC[C@H]6O)[nH]c4cc3F)cc2)cc1` gave an inhibition of 40% (STK4 (Homo sapiens, UniProt Q13043); enzyme activity, inhibitor; 10 µM).
Under “SILAC activity ratio”, `O=C(N1CCCCC1)n1ccnn1` is recorded as 2.07 and 1.56 and 2.15 and 2.63 (Pnpla8; probe labelling, inhibitor, competitive ABPP-SILAC; mouse T cells; concentration not given, 4 h, single peptide; relative to: treated over DMSO cells, lower = stronger inhibition).
With `C[C@H](NCc1ccc(-c2ccc(C(F)(F)F)cc2)cc1)C(N)=O` the inhibition was 3% (CDK3 (Homo sapiens, UniProt Q00526); cell-free assay, competition with immobilised ligand; 1 µM).
With `[CH3][Ti+2][O]C(=O)c1ccc([S][Au][PH](c2ccccc2)(c2ccccc2)c2ccccc2)cc1.c1cc[cH-]c1.c1cc[cH-]c1` the remaining activity was 95% and 99.7% (PRKCI (Homo sapiens, UniProt P41743); kinase activity, HotSpot radiometric; 1 µM, added: ATP 10 µM; relative to: vehicle).
`Cc1ccc(NC(=O)CCc2cccc(NC3=CC(=O)N(C4CCC(=O)NC4=O)C3=O)c2)cc1Cl` (centres unmarked) — result for “log2 fold change”: -2.53 (CRBN/Zinc finger protein Aiolos (Homo sapiens, UniProt Q96SW2+Q9UKT9); degrader, quantitative proteomics, measured: protein abundance; human regulatory T cells; 1 µM, 4 h; relative to: DMSO).
`CC(C)[C@H]1NC(=O)C[C@H]2/C=C/CCSSC[C@@H](NC1=O)C(=O)N[C@H](Cc1cccc3ccccc13)C(=O)NCC(=O)O2` gave an inhibition of 1% (Protein kinase C beta type, isoform beta-I (PRKCB, Homo sapiens, UniProt P05771); 10 µM).
With `N[C@H](C(=O)N1CCCC1)C1CCN(c2nccc3c(-c4ncc(Cl)cc4Cl)cccc23)CC1` the melting temperature was 58.8 °C and 58.9 °C (PADI2 (Homo sapiens, UniProt Q9Y2J8); thermal shift; 0.00302 µM).
`COc1cc2c(cc1S(=O)(=O)F)C(=O)NCCC2` has a remaining activity of 90.9% and 89.8% and 92.6% (Uncharacterized hydrolase SAUSA300_2518; enzyme activity, inhibitor, fluorogenic substrate; 5 µM).
For `O=C1NC(=O)c2c1c1cc(F)c[n+]3c1c1c2c2cc(O)ccc2[n]1[Ru-4]312([N]=C=S)[S+]3CC[S+]1CC[S+]2CC3` (centres unmarked), the remaining activity was 61% (TSSK2 (Homo sapiens, UniProt Q96PF2); enzyme activity; 100 nM, human enzyme, added: 10 µM ATP; relative to: untreated).
With `CC[C@@H](C)[C@@H]1CN([C@H](Cc2ccc3ccccc3c2)CN2CCC[C@H]2CN2CCNC[C@@H]2Cc2ccc3ccccc3c2)CCN1CCc1ccc(Cl)c(Cl)c1` the remaining binding was 104 ± 7.93% (Oprm1; radioligand binding; rat brain membranes; 500 nM, pH 7.5, 25 °C, added: 0.87 nM [3H]DAMGO).
For `CCCCCC(=O)CC(=O)N[C@H]1CCOC1=O`, the EC50 ratio was > 7.7 (lasR; plasI-LVAgfp reporter, agonist; relative to: pump-active over pump-mutant).
`CCCCC/C=C\C/C=C\C/C=C\C/C=C\CCCC(=O)NCCc1ccc(O)c(O)c1` — result for “maximal open probability”: 0.92 ± 0.05 (Trpv1 (Mus musculus, UniProt Q704Y3, S513A); ion current, agonist, whole-cell patch clamp; relative to: 3 mM 2-APB current).
`Cc1ccc(OS(=O)(=O)F)c(C(=O)Nc2ccncc2)c1` has a remaining activity of 91.2% and 95.1% and 92% (Uncharacterized hydrolase SAUSA300_2518; enzyme activity, inhibitor, fluorogenic substrate; 0.01 µM).
The remaining binding of `COc1ccccc1-c1n[nH]c2nc(NC3CCN(C(=O)Cc4ccc(F)cc4F)CC3)ncc12` is reported as 9% (cyclin 9 (Leishmania donovani, UniProt A0A2D1QVA3); competition bead pull-down, measured: LINJ.32.0800; Leishmania donovani extract; 10 µM; relative to: vehicle).
`CC[C@@H](C)[C@@H](NC(=O)[C@@H](CCC(N)=O)NC(=O)[C@H](NC(=O)[C@H]1CCCN1C(=O)[C@H](NC(=O)[C@@H](CO)NC(=O)[C@@H](Cc1ccccc1)NC(=O)[C@H]1CCCN1C(=O)[C@@H](CCC(N)=O)NC(=O)[C@H](N)CCSC)[C@H](C)CC)C(C)C)C(=O)N[C@@H](C(=O)N[C@H](CC(C)C)C(=O)N[C@H](CCC(N)=O)C(=O)NCC(=O)N[C@H](CO)C(=O)N[C@H](CCCNC(=N)N)C(=O)N[C@H](CCCNC(=N)N)C(=O)N[C@H](CCCNC(=N)N)C(=O)N[C@H](CCC(N)=O)C(=O)NCC(=O)N[C@H](CCCNC(=N)N)C(N)=O)[C@H](C)O` gave a Hill coefficient of 0.78 (Kcnma1 (Mus musculus, UniProt Q08460); ion current, blocker, inside-out patch clamp; Xenopus oocytes; +100 mV, added: 10 µM cytosolic Ca2+).
`O=C(Cc1ccccc1F)N[C@H]1CCOC1=O` gave an Emax of 104% (sdiA).
For `CC(C)[C@@H]1NC(=O)[C@H](Cc2ccccc2)NC(=O)[C@H](C)NC(=O)[C@H](Cc2ccccc2)NC(=O)[C@@H](NC(=O)[C@H](C)N)CSC1=O`, the EC50 ratio was 66 fold (Histidine kinase AgrC (Listeria monocytogenes, UniProt A8E0G3); reporter gene, agonist, agr GFP reporter; relative to: native 6-mer AIP).
`CC(C)CC(O)(CC(C)C)c1cn(C(=O)N2CCCC2)nn1` has an activity ratio of 1.41 (Pnpla8; enzyme activity, inhibitor, competitive ABPP-SILAC; mouse T-cells; concentration not given, 4 h, treated in situ; relative to: DMSO).
With `CN(/N=C/c1ccccc1C(=O)O)c1nc(-c2ccccc2Cl)cs1` the inhibition was 1.74% (FGFR2 (Homo sapiens, UniProt P21802); enzyme activity, inhibitor; 1 µM).
With `CC(C)[C@@H]1NC(=O)[C@H](CCC(=O)O)NC(=O)CNC(=O)[C@H]([C@@H](C)O)NC(=O)[C@H](CCC(=O)O)NC(=O)[C@H](CCC(=O)O)NC(=O)[C@H](CC(=O)O)NC(=O)[C@H](C(C)C)NC(=O)[C@H]([C@@H](C)O)NC(=O)CNC(=O)[C@H](CC(=O)O)NC(=O)[C@H](CC(N)=O)NC(=O)[C@H](Cc2ccc(O)cc2)NC1=O` the fluorescence polarization was 0.115 a.u. and 0.101 a.u. (KEAP1; Keap1-Nrf2 binding, inhibitor, competitive FP; 6.25 µM, 30 min, added: Nrf2 peptide probe; lower = stronger inhibition).
With `O=C(CCc1ccc(C(F)(F)F)cc1)N[C@H]1CCOC1=O` the agonist activity was 36% (lasR; reporter gene, agonist; Pseudomonas aeruginosa PAO-JP2; 100 µM, plasI-LVAgfp reporter; relative to: OdDHL at same concentration).
The remaining binding of `O=C(N[C@@H]1c2ccccc2C[C@H]1N1CCCC1)c1ccc(-c2ccnc3[nH]ccc23)nc1` is reported as 2.4% (PRKACB (Homo sapiens, UniProt P22694); binding, competition with immobilised ligand; 3 µM).
`CC(C)C[C@@H]1NC(=O)[C@H](C(C)C)NC(=O)[C@H](CCC(=O)O)NC(=O)CNC(=O)[C@H]([C@@H](C)O)NC(=O)[C@H](CCC(=O)O)NC(=O)[C@H](CCC(=O)O)NC(=O)[C@H](CC(=O)O)NC(=O)[C@H](C(C)C)NC(=O)[C@H]([C@@H](C)O)NC(=O)CNC(=O)[C@H](CC(=O)O)NC(=O)[C@@H]2CCCN2C1=O` gave a fluorescence polarization of 0.773 a.u. and 0.719 a.u. (KEAP1; Keap1-Nrf2 binding, inhibitor, competitive FP; 0.0977 µM, 30 min, added: Nrf2 peptide probe; lower = stronger inhibition).
With `CCCCCCCCCC(O)CC(=O)N[C@H]1CCOC1=O` (some centres unmarked) the Emax was 86.3% (sdiA).
The inhibition of `CN(C)[C@H]1C[C@@]23CC[C@@]4(O2)C(=CC[C@]2(C)[C@@H](c5ccc6ccncc6c5)CC[C@H]24)C=C3[C@@H](O)[C@@H]1O` is reported as 1.6% (CSNK1A1 (Homo sapiens, UniProt P48729); ATP probe labelling, inhibitor, KiNativ profiling; 0.1 µM).
`CCCC[C@H]1CNCCN1C[C@@H]1CCCN1C[C@H](CC1CCCCC1)N1CCN(CCCC2CCCC2)[C@H]([C@@H](C)O)C1` has a remaining binding of 105 ± 10.5% (Oprm1; radioligand binding; rat brain membranes; 500 nM, pH 7.5, 25 °C, added: 0.87 nM [3H]DAMGO).
`CCCCCCCCCC(=O)CC(=O)Nc1ccccc1O` has an agonist activity of 50% (lasR; reporter gene, agonist; Pseudomonas aeruginosa PAO-JP2; 100 µM, plasI-LVAgfp reporter; relative to: OdDHL at same concentration).
`CC[C@@H](C)[C@@H]1CN([C@H](Cc2ccc3ccccc3c2)CN2CCC[C@H]2CN2CCNC[C@@H]2CO)CCN1CCCC1CCCC1` has a remaining binding of 105 ± 9.3% (Oprm1; radioligand binding; rat brain membranes; 500 nM, pH 7.5, 25 °C, added: 0.87 nM [3H]DAMGO).
The agonist activity of `O=C(Nc1ccccc1NC(=O)c1cccc(Cl)c1)c1cccc(Cl)c1` is reported as 0% (lasR; reporter gene, agonist; Pseudomonas aeruginosa PAO-JP2; 100 µM, plasI-LVAgfp reporter; relative to: OdDHL at same concentration).
For `C#CCCCCOc1ccc2c(c1)CCCN2C(=O)CCl`, the reactivity ratio was 0.901 (Vitamin D3 receptor (VDR, Homo sapiens, UniProt P11473); mass spectrometry profiling; H460 cell lysate; 100 µM over 10 µM, UniProt P11473; relative to: high over low concentration).
`C=CC(=O)NC[C@H](NC(=O)[C@H](CC1CCCCC1)NC(=O)[C@H](CCC(N)=O)NC(C)=O)C(=O)N[C@@H](CC(C)C)C(=O)N[C@@H](Cc1ccccc1)C(=O)O` gave a -TΔS of 3.7 kcal/mol (Beta sliding clamp (Escherichia coli, UniProt P0A988); binding, isothermal titration calorimetry; 25 °C).

Some of these lines once more:
`O=C(Cc1ccccc1F)N[C@H]1CCOC1=O` gave an Emax of 104% (sdiA).
For `CC(C)[C@@H]1NC(=O)[C@H](Cc2ccccc2)NC(=O)[C@H](C)NC(=O)[C@H](Cc2ccccc2)NC(=O)[C@@H](NC(=O)[C@H](C)N)CSC1=O`, the EC50 ratio was 66 fold (Histidine kinase AgrC (Listeria monocytogenes, UniProt A8E0G3); reporter gene, agonist, agr GFP reporter; relative to: native 6-mer AIP).
`CC(C)CC(O)(CC(C)C)c1cn(C(=O)N2CCCC2)nn1` has an activity ratio of 1.41 (Pnpla8; enzyme activity, inhibitor, competitive ABPP-SILAC; mouse T-cells; concentration not given, 4 h, treated in situ; relative to: DMSO).
